Experimental data of several laboratories.
Numbered parts are unrelated; each lists some results of a single study. “And” joins repeats or separate records; there may be more than shown.
UniProt P19784, sequence (whole entry, looked up): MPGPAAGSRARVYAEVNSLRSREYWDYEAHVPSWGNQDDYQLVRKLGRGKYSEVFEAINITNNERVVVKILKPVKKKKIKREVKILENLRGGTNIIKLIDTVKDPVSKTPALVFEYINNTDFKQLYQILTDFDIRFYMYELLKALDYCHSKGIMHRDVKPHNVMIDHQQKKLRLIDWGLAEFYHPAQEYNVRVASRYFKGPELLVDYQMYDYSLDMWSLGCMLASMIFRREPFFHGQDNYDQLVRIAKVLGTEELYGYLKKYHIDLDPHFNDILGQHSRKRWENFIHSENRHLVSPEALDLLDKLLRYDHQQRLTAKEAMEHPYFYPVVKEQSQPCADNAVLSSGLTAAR
UniProt P14416, sequence (whole entry, looked up): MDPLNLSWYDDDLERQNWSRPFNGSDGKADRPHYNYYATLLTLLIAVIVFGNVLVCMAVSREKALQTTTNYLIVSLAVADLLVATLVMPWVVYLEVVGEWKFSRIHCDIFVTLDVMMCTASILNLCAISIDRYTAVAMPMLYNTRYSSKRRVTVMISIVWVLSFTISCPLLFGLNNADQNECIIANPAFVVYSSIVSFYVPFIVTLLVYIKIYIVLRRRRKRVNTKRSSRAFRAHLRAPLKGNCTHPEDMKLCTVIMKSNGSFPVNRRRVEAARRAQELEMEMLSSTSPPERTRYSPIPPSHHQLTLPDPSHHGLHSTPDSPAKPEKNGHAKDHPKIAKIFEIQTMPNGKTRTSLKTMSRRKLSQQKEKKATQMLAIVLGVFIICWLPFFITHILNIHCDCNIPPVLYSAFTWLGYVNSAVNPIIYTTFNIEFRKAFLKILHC
UniProt P53779, sequence (whole entry, looked up): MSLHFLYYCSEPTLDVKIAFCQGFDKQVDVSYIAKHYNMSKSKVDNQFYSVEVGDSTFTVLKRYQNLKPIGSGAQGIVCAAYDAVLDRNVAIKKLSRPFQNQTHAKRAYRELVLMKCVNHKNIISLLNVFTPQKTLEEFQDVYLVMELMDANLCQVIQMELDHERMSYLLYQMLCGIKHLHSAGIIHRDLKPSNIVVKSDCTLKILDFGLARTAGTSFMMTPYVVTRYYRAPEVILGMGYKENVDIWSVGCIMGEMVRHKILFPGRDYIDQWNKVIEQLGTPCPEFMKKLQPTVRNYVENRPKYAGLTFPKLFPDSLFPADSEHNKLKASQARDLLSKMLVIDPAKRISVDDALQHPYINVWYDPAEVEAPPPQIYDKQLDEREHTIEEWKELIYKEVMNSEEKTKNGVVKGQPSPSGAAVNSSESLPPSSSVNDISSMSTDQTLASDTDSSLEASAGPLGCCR
UniProt Q96LB0, sequence (whole entry, looked up): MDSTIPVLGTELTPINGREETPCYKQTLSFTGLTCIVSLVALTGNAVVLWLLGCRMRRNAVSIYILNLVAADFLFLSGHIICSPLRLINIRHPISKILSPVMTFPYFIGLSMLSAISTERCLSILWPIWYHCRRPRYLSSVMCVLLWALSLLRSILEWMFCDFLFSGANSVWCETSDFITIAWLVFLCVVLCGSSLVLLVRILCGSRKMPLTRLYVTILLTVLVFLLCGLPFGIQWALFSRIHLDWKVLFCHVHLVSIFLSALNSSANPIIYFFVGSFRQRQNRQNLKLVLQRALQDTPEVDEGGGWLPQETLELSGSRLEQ

Study 1
SMILES: O=C1CCC(N2Cc3cc(C4CCN(Cc5ccccc5)CC4)ccc3C2=O)C(=O)N1 (stereo not drawn)
Action: degrader
Quantity: remaining protein
Zinc finger protein Aiolos: Zinc finger protein Aiolos (Homo sapiens, UniProt Q9UKT9)
UniProt Q9UKT9, sequence (whole entry, looked up): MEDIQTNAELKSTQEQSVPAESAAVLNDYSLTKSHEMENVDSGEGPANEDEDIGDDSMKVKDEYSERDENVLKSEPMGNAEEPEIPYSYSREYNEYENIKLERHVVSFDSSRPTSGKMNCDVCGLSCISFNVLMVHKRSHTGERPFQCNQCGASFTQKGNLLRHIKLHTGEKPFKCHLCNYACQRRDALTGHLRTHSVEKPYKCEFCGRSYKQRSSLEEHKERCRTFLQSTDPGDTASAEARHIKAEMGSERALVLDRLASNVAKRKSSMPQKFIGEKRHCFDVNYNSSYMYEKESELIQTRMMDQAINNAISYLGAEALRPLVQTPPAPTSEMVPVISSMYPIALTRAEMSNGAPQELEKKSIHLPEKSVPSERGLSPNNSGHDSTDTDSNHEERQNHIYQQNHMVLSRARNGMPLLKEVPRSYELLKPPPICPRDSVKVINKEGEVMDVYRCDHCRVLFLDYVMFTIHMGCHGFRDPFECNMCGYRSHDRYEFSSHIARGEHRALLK
CSNK1A1: Casein kinase I isoform alpha (CSNK1A1, Homo sapiens, UniProt P48729)
UniProt P48729, sequence (whole entry, looked up): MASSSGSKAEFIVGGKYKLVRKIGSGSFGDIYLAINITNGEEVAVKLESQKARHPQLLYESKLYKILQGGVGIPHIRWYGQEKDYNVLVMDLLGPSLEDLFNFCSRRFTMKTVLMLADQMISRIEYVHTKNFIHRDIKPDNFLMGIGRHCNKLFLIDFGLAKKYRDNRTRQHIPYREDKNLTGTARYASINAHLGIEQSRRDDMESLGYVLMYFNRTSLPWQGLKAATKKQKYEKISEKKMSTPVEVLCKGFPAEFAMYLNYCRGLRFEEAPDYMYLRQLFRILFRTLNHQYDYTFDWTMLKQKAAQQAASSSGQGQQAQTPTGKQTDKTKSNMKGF
CRBN/Zinc finger protein Helios: CRBN/Zinc finger protein Helios (Homo sapiens, UniProt Q96SW2+Q9UKS7)
UniProt Q96SW2, sequence (whole entry, looked up): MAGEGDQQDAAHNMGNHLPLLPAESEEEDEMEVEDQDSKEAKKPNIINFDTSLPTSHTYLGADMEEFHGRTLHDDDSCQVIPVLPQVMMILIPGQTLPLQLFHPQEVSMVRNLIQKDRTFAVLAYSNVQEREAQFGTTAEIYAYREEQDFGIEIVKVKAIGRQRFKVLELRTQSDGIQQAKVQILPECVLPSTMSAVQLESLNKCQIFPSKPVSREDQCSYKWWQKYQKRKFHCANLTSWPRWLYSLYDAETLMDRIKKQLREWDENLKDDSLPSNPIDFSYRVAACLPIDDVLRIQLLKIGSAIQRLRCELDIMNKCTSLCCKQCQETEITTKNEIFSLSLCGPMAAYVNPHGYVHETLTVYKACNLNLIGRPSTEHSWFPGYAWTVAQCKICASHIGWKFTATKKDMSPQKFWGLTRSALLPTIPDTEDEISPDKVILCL
UniProt Q9UKS7, sequence (whole entry, looked up): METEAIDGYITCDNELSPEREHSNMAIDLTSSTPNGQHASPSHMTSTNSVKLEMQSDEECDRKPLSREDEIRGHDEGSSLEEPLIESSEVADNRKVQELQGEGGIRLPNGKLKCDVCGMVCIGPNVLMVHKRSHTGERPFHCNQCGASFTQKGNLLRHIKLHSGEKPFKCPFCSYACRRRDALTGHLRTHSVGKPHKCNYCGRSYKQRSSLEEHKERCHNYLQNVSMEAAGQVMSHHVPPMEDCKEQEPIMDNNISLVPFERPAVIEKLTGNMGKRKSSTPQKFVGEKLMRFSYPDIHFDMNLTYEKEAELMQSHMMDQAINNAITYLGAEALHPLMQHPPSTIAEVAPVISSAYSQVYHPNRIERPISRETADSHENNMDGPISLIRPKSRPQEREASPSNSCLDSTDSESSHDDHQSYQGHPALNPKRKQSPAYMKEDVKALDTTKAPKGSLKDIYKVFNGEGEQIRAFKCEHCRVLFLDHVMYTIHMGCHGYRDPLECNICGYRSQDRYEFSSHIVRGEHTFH
DNA-binding protein Ikaros: DNA-binding protein Ikaros (Homo sapiens, UniProt Q13422)
UniProt Q13422, sequence (whole entry, looked up): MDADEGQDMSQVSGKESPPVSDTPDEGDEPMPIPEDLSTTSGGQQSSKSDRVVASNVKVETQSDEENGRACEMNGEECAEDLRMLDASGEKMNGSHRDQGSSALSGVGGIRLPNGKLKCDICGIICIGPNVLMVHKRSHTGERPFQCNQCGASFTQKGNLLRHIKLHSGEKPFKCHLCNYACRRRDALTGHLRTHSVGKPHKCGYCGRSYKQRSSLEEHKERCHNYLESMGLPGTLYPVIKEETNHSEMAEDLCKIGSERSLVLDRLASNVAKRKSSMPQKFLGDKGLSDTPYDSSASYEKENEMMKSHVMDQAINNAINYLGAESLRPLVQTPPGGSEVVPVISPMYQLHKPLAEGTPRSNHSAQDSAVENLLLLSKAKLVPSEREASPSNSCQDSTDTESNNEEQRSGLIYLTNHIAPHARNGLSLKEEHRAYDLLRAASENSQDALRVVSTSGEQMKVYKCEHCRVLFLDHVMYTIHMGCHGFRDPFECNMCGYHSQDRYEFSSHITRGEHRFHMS
SALL4: Sal-like protein 4 (SALL4, Homo sapiens, UniProt Q9UJQ4)
UniProt Q9UJQ4, sequence (whole entry, looked up): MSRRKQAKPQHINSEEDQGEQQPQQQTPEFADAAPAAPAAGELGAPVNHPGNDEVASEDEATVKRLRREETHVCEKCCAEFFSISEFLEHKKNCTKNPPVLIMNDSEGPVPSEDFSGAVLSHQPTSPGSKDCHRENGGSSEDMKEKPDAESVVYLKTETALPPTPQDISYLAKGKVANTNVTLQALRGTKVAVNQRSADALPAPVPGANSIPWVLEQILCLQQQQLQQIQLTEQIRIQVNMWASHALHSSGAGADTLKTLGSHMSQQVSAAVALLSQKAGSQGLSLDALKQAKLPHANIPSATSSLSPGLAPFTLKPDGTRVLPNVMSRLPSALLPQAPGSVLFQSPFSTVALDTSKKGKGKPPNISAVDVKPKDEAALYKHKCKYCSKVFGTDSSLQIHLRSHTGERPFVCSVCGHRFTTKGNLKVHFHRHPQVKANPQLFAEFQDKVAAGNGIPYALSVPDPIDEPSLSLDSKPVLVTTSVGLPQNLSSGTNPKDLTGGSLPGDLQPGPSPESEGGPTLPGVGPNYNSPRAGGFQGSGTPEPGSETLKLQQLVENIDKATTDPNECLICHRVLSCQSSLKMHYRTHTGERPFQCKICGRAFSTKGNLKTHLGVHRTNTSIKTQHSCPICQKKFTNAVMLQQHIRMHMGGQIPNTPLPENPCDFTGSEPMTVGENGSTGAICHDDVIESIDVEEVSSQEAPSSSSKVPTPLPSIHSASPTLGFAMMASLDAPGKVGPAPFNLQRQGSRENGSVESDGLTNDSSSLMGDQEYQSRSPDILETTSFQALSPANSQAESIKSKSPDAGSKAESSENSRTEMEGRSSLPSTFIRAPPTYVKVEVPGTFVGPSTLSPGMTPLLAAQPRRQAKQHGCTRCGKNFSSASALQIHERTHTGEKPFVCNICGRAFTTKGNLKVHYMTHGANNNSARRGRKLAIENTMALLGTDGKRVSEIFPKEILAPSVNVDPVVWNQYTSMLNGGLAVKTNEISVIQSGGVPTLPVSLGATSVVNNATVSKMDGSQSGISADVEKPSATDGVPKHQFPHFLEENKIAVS
target = Zinc finger protein Aiolos; test = HiBiT; system = HEK293; setting = 0.0005081 µM; result = 87.9% and 92.3%
target = CSNK1A1; test = HiBiT; system = HEK293 HiBiT-CK1α; setting = 1111.11 nM; result = 85.4% and 94.1%
target = Zinc finger protein Aiolos; test = HiBiT; system = HEK293; setting = 10 µM, 6 h; result = 79.8%
target = CRBN/Zinc finger protein Helios; test = flow cytometry; system = primary human regulatory T cells; setting = 0.3333 µM, 6 h; result = 50.6%
target = DNA-binding protein Ikaros; test = HiBiT; system = HEK293; setting = 10 µM, 6 h; result = 95.5%
target = CRBN/Zinc finger protein Helios; test = flow cytometry; system = primary human regulatory T cells; setting = 0.004115 µM, 3 h; result = 101%
target = SALL4; test = HiBiT; system = HEK293; setting = 0.0001694 µM, 6 h; result = 87.2%
target = DNA-binding protein Ikaros; test = HiBiT; system = HEK293; setting = 0.0001694 µM, 6 h; result = 94.1%
target = CSNK1A1; test = HiBiT; system = HEK293 HiBiT-CK1α; setting = 370.37 nM; result = 84.9% and 92.2%
target = SALL4; test = HiBiT; system = HEK293; setting = 0.3704 µM; result = 52.7% and 51.7%
target = SALL4; test = HiBiT; system = HEK293; setting = 3.333 µM, 6 h; result = 46.1%
target = CRBN/Zinc finger protein Helios; test = flow cytometry; system = primary human regulatory T cells; setting = 0.1111 µM, 6 h; result = 62.7%
target = Zinc finger protein Aiolos; test = HiBiT; system = HEK293; setting = 0.0001694 µM, 6 h; result = 98.6%
target = CSNK1A1; test = HiBiT; system = HEK293 HiBiT-CK1α; setting = 0.1694 nM; result = 95.1% and 107%

Study 2
Structure (SMILES): Cn1nc(C(F)(F)F)cc1-c1cnc(N2CCc3cc(S(=O)(=O)Nc4c(F)cc(Cl)cc4F)cc(N4CCCC4=O)c32)nc1
Observed: cell-free assay
Tested at: 10 µM
Quantity: inhibition
target = ADRA1D (Homo sapiens, UniProt P25100); result = -4.04%
target = ADRB3 (Homo sapiens, UniProt P13945); result = -11.8%
target = TMEM97 (Homo sapiens, UniProt Q5BJF2); result = -27.8%
target = ADRB2 (Homo sapiens, UniProt P07550); result = 17.4%
target = DRD1 (Homo sapiens, UniProt P21728); result = -6.95%
target = HRH2 (Homo sapiens, UniProt P25021); result = 12.1%
target = ADRA2A (Homo sapiens, UniProt P08913); result = -9.1%
target = DRD2 (Homo sapiens, UniProt P14416); result = -0.24%
target = HTR2B (Homo sapiens, UniProt P41595); result = 24.7%
target = ADRA1B (Homo sapiens, UniProt P35368); result = 4.33%
target = DRD4 (Homo sapiens, UniProt P21917); result = 9.09%
target = HRH3 (Homo sapiens, UniProt Q9Y5N1); result = 0.43%
target = ADRB1 (Homo sapiens, UniProt P08588); result = -10.8%
target = CHRM4 (Homo sapiens, UniProt P08173); result = 41.2%
target = HRH1 (Homo sapiens, UniProt P35367); result = 10.2%

Study 3
SMILES: N=C(N)NC(=O)c1cnn(-c2cccc3ncccc23)c1C1CC1
Action: agonist
Tested at: 10 µM
Reference: untreated
Quantity: fold over basal
target = ADORA1 (Homo sapiens, UniProt P30542); test = β-arrestin recruitment, PRESTO-Tango; result = 1.03
target = TSHR (Homo sapiens, UniProt P16473); test = β-arrestin recruitment, PRESTO-Tango; result = 1.62 fold
target = Mas-related G-protein coupled receptor member X3 (Homo sapiens, UniProt Q96LB0); test = β-arrestin recruitment, PRESTO-Tango; result = 1.97
target = Trace amine-associated receptor 2 (TAAR2, Homo sapiens, UniProt Q9P1P5); test = β-arrestin recruitment, PRESTO-Tango; result = 1.11 fold
target = NPY5R (Homo sapiens, UniProt Q15761); test = PRESTO-Tango arrestin recruitment; result = 1.23
target = Probable G-protein coupled receptor 174 (Homo sapiens, UniProt Q9BXC1); test = β-arrestin recruitment, PRESTO-Tango; result = 1.03
target = Probable G-protein coupled receptor 150 (GPR150, Homo sapiens, UniProt Q8NGU9); test = β-arrestin recruitment, PRESTO-Tango; result = 1.37
target = SSTR5 (Homo sapiens, UniProt P35346); test = β-arrestin recruitment, PRESTO-Tango; result = 1.63 fold

Study 4
SMILES: CC#CC(=O)Nc1cc2c(Nc3ccc(F)c(Cl)c3)ncnc2cn1
Observed: enzyme activity
Action: inhibitor
Tested at: 0.5 µM
Reference: control
Quantity: remaining activity
target = DYRK4 (Homo sapiens, UniProt Q9NR20); result = 98%
target = CDK7 (Homo sapiens, UniProt P50613); result = 101%
target = HIPK3 (Homo sapiens, UniProt Q9H422); result = 92.9%
target = BRSK1 (Homo sapiens, UniProt Q8TDC3); result = 102%
target = NEK9 (Homo sapiens, UniProt Q8TD19); result = 104%
target = CAMK1G (Homo sapiens, UniProt Q96NX5); result = 99.2%
target = ROS1 (Homo sapiens, UniProt P08922); result = 91.3%
target = SLK (Homo sapiens, UniProt Q9H2G2); result = 93.6%
target = Aurora kinase A (AURKA, Homo sapiens, UniProt O14965); result = 96.5%
target = CAMK1D (Homo sapiens, UniProt Q8IU85); result = 107%
target = GRK5 (Homo sapiens, UniProt P34947); result = 105%
target = RET (Homo sapiens, UniProt P07949); result = 84.3%
target = MAP3K8 (Homo sapiens, UniProt P41279); result = 94.2%
target = ROCK2 (Homo sapiens, UniProt O75116); result = 98.7%
target = CSNK2A2 (Homo sapiens, UniProt P19784); result = 96.5%
target = MAPK10 (Homo sapiens, UniProt P53779); result = 85.4%
target = PTK2B (Homo sapiens, UniProt Q14289); result = 94.1%
target = PKN2 (Homo sapiens, UniProt Q16513); result = 95%
target = Cyclin-dependent kinase 2, with cyclin A (CDK2, Homo sapiens, UniProt P24941); result = 97.8%
target = NTRK3 (Homo sapiens, UniProt Q16288); result = 95.3%
target = DMPK (Homo sapiens, UniProt Q09013); result = 104%
target = PRKD1 (Homo sapiens, UniProt Q15139); result = 98.7%
target = MAP3K2 (Homo sapiens, UniProt Q9Y2U5); result = 107%
